Measurements collected from several papers.
Target: 5-hydroxytryptamine receptor 1B (HTR1B, Homo sapiens, UniProt P28222)

Compound	assay	test system	conditions	scale	endpoint	value
CCc1nnc(-c2c(OC)cc(-c3cnc4cc(-c5cnn(C)c5)ccn34)cc2OC)o1	antagonist radioligand, radioligand binding		10 µM, SafetyScreen44 5-HT1B		inhibition	-23%
Cc1cc(-c2ccc3ccccc3c2)nnc1NCCN1CCN(C)CC1	antagonist		10000 nM	baseline: control	activity	12%
N[C@H](C(=O)N1CCCC1)C1CCN(c2nccc3c(-c4ncc(Cl)cc4Cl)cccc23)CC1	functional response, agonist		10 µM		response	0%
C[C@H](NCc1ccc(-c2ccc(C(F)(F)F)cc2)cc1)C(N)=O	radioligand binding, SafetyScreen panel		1 µM, species human, with: 1.0 nM [3H]GR125743		inhibition	-3%
COc1ccccc1N1CCN(CCCCN2CCCc3ccccc3C2=O)CC1	radioligand binding		concentration not given, with: [3H]5-CT		inhibition	86.1%
CCN(CC)CCOc1ccc(-c2nnn(Cc3ccc(OC)cc3)c2N)cc1	radioligand binding	Chem-1	10 µM, with: 10000 nM radioligand		inhibition	4.58%
O=C1c2ccccc2CCCN1CCCCN1CCN(c2cccc(Cl)c2Cl)CC1	radioligand binding		concentration not given, with: [3H]5-CT		inhibition	96%
Cc1cc(Nc2nc(C[C@@]3(C(=O)O)CCN(Cc4cccc(Cl)c4F)[C@H](C)C3)cc(C)c2F)[nH]n1	inhibitor		10 µM		inhibition	0.81%
C/C(=N\OCCCN1CCCCC1)c1ccc(C(F)(F)F)cc1	agonist, cAMP		10 µM		activation	4.3%

For quick reference, copied from above:
Compound	assay	test system	conditions	scale	endpoint	value
N[C@H](C(=O)N1CCCC1)C1CCN(c2nccc3c(-c4ncc(Cl)cc4Cl)cccc23)CC1	functional response, agonist		10 µM		response	0%
